Assay results from different studies.
Parts stem from different laboratories: compare values within a part only. Positions count from the first letter of the parent shown.

Set 1 — method: universal PBM; form: double-stranded DNA, one strand shown; sample: in vitro; concentration: not given; direction: higher = stronger binding
Target: Sal-like protein 4, full length isoform B (SALL4, Homo sapiens, UniProt Q9UJQ4-2, residues 1-616)
Setting: 8-mer, flanks averaged, mean of replicates
| Oligonucleotide | E-score |
| --- | --- |
| ACTACAGG | -0.0345 |
| AACAGAGA | 0.0083 |
| GCACCCAA | -0.26 |
| CCGTCATC | -0.212 |
| ATCGTGTA | 0.0867 |
| CGCCTCCC | -0.348 |
| AAGATGAT | 0.211 |
| CCCTTCGA | -0.217 |
| AACGAACA | 0.217 |
| AAGTTCAA | 0.173 |
| CCTAACTA | 0.142 |
| CATTAAAG | 0.152 |
| CTTAGCTC | -0.316 |
| ACTTTACG | 0.155 |
| CACTAACG | 0.0198 |
| GAAGCCCC | -0.199 |
| ACCGCTCA | -0.0786 |
| CACTACGG | -0.243 |
| TCGAAACA | 0.12 |
| AGTACTAA | 0.227 |
| GCACTTCC | -0.189 |

Set 2 — method: protein binding microarray; form: double-stranded DNA, one strand shown; sample: in vitro; concentration: not given; baseline: not given; direction: higher = stronger binding
Target: Histone acetyltransferase KAT6A, both winged helices, GST fusion (KAT6A, Homo sapiens, UniProt Q92794, residues 1-181)
Setting: 8-mer, flanks averaged, mean of 2 arrays, mostly near background
Target sequence (chain): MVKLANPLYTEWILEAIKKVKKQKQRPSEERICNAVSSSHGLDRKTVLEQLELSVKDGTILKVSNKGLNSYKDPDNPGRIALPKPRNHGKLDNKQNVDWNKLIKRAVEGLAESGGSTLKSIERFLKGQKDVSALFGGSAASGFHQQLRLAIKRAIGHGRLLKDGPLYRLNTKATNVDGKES
| Oligonucleotide | E-score |
| --- | --- |
| GGAAAAGA | -0.0516 |
| TGACTAAA | -0.124 |
| GCCAATTA | -0.128 |
| CTTACGCA | 0.107 |
| ATCCAGCG | 0.181 |
| CCTGGACA | -0.0858 |
| ATCACGGG | 0.115 |
| GAGCGCAC | 0.167 |
| GCGAAAGC | 0.0696 |
| CCCTAAAA | -0.212 |
| AGCAATCA | -0.134 |
| AGAAGACA | -0.213 |
| TAGAAGAA | -0.201 |
| AATTTTCA | -0.137 |
| AAAGCGCA | 0.245 |
| TATAAAAA | -0.0282 |
| AACAACGA | -0.0677 |
| ACGACAAC | 0.0426 |
| GCCCCATA | -0.227 |
| AGCCTTAA | -0.00869 |
| CGTATATA | -0.0103 |
| AGCCGTTG | 0.179 |
| CGATATAA | -0.0452 |
| ACTACATC | -0.128 |
| ATCCTCGG | -0.0637 |

Set 3 — method: RNA Bind-n-Seq; form: RNA; sample: in vitro; concentration: 1 µM; setting: whole 134-nt RNA, ends assumed; together with: 150 mM KCl; baseline: input library; direction: higher = stronger binding
Target: Ras GTPase-activating protein-binding protein 1, C-terminal RGG region (G3BP1, Homo sapiens, UniProt Q13283)
UniProt Q13283, sequence (whole entry, looked up): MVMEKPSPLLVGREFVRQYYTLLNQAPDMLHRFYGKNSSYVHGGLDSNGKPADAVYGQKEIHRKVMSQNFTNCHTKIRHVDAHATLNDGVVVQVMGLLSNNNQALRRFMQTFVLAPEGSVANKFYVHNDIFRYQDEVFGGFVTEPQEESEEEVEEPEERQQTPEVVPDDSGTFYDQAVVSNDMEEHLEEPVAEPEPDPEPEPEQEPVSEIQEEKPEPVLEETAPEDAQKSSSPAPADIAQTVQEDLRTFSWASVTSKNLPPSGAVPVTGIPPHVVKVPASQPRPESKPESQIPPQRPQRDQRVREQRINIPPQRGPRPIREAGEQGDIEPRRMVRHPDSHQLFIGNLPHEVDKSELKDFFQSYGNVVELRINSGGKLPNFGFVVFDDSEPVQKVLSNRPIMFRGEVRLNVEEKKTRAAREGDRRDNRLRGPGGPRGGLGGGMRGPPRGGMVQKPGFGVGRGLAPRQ
Shared flanks, not repeated: GGGAGUUCUACAGUCCGACGAUC … UGGAAUUCUCGGGUGUCAAGG
| Oligonucleotide | log2 enrichment |
| --- | --- |
| UUUGUCCCUGCUCAGGAUGAGACUUCUGUGAGCAGCGAGGAUUUUGAUAUGAGCGACUCCACAUGGAUGUCAGCUGACCCGCACCUGGCC | -0.881 |
| CACAGACAACACGCACCCACACAGACACAGAGGGAAGGGGUUGGGAUGGGGACAGGGUGCACAGCAGGGGGGGGUAGGACCCCAGCCCCU | -0.975 |
| UUUGCUUGCAGUAUCUGUUUCUCUUCCUAGGCUCAAGUUGGUGACCCAAGCCUAUUGUAAACAAGUGAUUAUCUCAAAGGGAGAUGCCAA | -0.861 |
| UGGCCCUGGUGGCAUGCGGGGAGGAAGAGGUGGCCUCAUGGAUCGUGGUCGUCCCGGUGGAAUGUUCAGAGGUGGCCGUGGUGGAGACAG | 0.89 |
| UUACUAGAAAAGGCAGAAGCCCGUGAACGUGAAAGAGAAAAAGAAGAGGCUCGGAAGAUGAAACGAAAAGAAUCUGCAUUUAAGAGUAUG | -2.29 |
| AAGUCCUGUGCUACACAUCGUAUGUACCGAAUCGGGUUUUGGGUUUUGGUUUUGGGAAAGUAUUAUGUUACGCCGUUCGGAUCUGCACUU | -1.28 |
| UAACUUUAGAGGAGGAUCUGAUGGAUAUGGCAGUGGACGUGGAUUUGGGGAUGACUAUAAUGGGUAUGGAGGAGGACCUGGAGGUGGCAA | -0.66 |
| UAACUUUAGAGGAGGAUCUGAUGGAUAUGGCAGUGGACGUGGAUUUGGGGAUGGCUAUAAUGGGUAUGGACGAGGACCUGGAGGUGGCAA | -0.661 |
| UGCUUGUUCUGGAGUGAUCUUCUGACUGGAAAAGAACUAUGUCAUGGAUCAAGGAAGGAGAGCUGUCACUUUGGGAGCGGUUCUGUGCCA | 1.43 |
| UGUUUUAAGGUUGCCAACUUUGCAACAAUGGAAGAUGAAGAAGAGCUAGAAGAGCGUCCUCACAAGGACUGGGAUGAGAUCAUUCCAGAG | -2.03 |
| GCAGGAAGUAAAAACAAAUGGAAAAGCUUCGGAUAGUGGCAGGGGUGGGGGUUGCUAAGGAAAGGGUGGGAUGGGAGUGGGUAAAGAGUU | 2.61 |
| CUCAAGUCCUGUGCUACACAUCGUAUGUACCGAAUCGGAAAGGAAAGGUUUGGAAAGUAUUAUGUUACGCCGUUCGGAUCUGCACUUCCA | -1.28 |
| UCUCUUGCUCAAGUUUUCUCUCACAGAUGACAGCCACCUACCACAUAACAUGACCAGCAAACGGACUGUUCCUAGUCCAGAGGGCCUUGC | 0.25 |
| GUCCUGUGCUACACAUCGUAUGUACCGAAUCGGGAAAAAGGGAAAAAAAGGGAAAGGGAAAGUAUUAUGUUACGCCGUUCGGAUCUGCAC | -0.405 |

Set 4 — method: RNA Bind-n-Seq; form: RNA; sample: in vitro; concentration: not given; baseline: input RNA pool; direction: higher = stronger binding
Target: RING finger protein unkempt homolog, zinc fingers 1-6, GST-SBP tag (UNK, Homo sapiens, UniProt Q9C0B0, residues 30-357)
Setting: RNA with constant flanks, human and mouse sites, ends assumed
Shared flanks, not repeated: GGGAGUUCUACAGUCCGACGAUC … CAACAGAGGAUUGAGCAUCA
Residues (chain): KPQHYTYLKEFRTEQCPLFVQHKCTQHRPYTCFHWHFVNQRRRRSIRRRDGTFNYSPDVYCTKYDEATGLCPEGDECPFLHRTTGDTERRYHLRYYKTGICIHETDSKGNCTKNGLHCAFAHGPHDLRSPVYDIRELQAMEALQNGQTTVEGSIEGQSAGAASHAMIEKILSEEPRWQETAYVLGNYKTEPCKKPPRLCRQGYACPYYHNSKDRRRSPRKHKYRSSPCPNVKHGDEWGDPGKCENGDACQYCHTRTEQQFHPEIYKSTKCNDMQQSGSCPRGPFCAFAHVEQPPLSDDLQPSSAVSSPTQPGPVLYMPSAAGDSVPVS
| Oligonucleotide | bound/input enrichment [ratio] |
| --- | --- |
| AGAAGGAAGCGAGCCCGGCAGAUCAAUGUUUCCACAGAUGACUCAGAGGUCAAAGCUUGCCUUAGAGCCUUGGGGGAACCCAUCACACUUUUUGGAGAGGGUCCUGCUGAAAGAAGAGAA | 0.168 |
| CUUGUGGAGAAGGUGCUUCCUGGGCACUUCAAUACCUUUGGUGCCGAAAGGCUGUUUCGCUUAGCUUCUAACUAUAUUUCAAAAGCUGGGAUAUGCCACAAAGUGUCUACUUUUGCCAUG | 0.251 |
| AACGUGGAGUUGAGUUCCUUGGCCCGGCUUCCCAGCUUGAAUAAACUCCGGAAGUUGGAACUUAGUGACAAUAUAAUUUCUGGAGGCUUGGAAGUCCUGGCAGAGAAAUGUCCAAAUCUU | 0.325 |
| AGAACACAGUUAUGGGUCGCAAGAAGAAGAAGCAGCUGAAGCCGUGGUGCUGGUAUUGUAAUAGAGAUUUUGAUGAUGAGAAGAUCCUUAUUCAGCACCAAAAAGCAAAGCAUUUUAAAU | 0.385 |
| UUUGGAAGAAAUGUAUUUGCAAUUUCAUAUAUACCAGGCUUGCUCUUUGCAGUGAAUGGGAAGCCUCAUUUUGGGGACCAAGAACCUGUACAAGGAUUUGUGAUGAACUUUUCCAAUGGG | 0.246 |
| UACCCGUUCUCUCCCUAUAACCUGUUUAUUAACCAACCCUGUCCUGAGUUCAUGGCCAAAACUUAAAUAAGAGAAGGAGGAGAGGGUCAGAUGGAUAAAGAUAAAGAUACCAAGGCCUGG | 0.242 |
| AAAUUUGUUCAUGGGUAUGGGGAAACAAAUCUCUUUCUGAUGCUUAACGAUUCUAUCCUAUUAUUUUUAUUAUUUUGUUUUUGUCUUUUUUCUUAUGAGCUUUCACCACUACUGAUAUUU | 9.05 |
| UUGCCCAUUUUUAAGCAAGAAGAGUCGAGUUUGCCUCCUGAUAAUGAGAAUAAAAUCCUGCCUUUUCAAUAUGUGCUUUGUGCUGCUACCUCUCCAGCAGUGAAACUCCAUGAUGAAACC | 0.192 |
| GAUACUCAGGGUAAAAAGAAAUGGAAAAAAACAUGUUGUCUCCCAUCUUUUGUCAUCUUCCUUUUUAUCAUUGGCUGCAUUAUAUCUGGAAUUACUCUUCUGGCUAUAUUUAGAGUUGAC | 0.352 |
| CCCGUAACGGGGCCUGAGUACGCAACCCCGAUCGUCAUGGACAUGUCAGGGCACCCCACAGCCUCAGUUGGUCUGCCCUCCACAUCCACCUUCAAAACUGCAGGGACCCAGCCUCACGCU | 0.0685 |
| GUCAUGCCGGGGAUAGUGGAGCUGCCCACUCUAGAGGAGCUGAAAGUAGAUGAGGUGAAAAUUAGUUCUGCUGUGCUUAAAGCUGCGGCCCAUCACUAUGGAGCUCAAUGUGAUAAGCCC | 5.59 |

Set 5 — method: DHFR PCA, deep sequencing; sample: yeast; together with: (+)-ABA 710 µM; baseline: wild-type fitted maximum; direction: higher = stronger binding
Target: ABI1, truncated, D143A, DHFR fusion (Arabidopsis thaliana)
Setting: methotrexate growth selection, single substitutions
Starting sequence: PYL1, truncated, DHFR fusion (Arabidopsis thaliana); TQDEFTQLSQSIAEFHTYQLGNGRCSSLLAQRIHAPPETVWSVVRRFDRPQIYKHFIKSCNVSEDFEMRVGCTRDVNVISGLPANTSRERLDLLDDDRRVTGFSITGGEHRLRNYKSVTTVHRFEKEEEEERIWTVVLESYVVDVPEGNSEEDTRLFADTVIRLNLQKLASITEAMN; partner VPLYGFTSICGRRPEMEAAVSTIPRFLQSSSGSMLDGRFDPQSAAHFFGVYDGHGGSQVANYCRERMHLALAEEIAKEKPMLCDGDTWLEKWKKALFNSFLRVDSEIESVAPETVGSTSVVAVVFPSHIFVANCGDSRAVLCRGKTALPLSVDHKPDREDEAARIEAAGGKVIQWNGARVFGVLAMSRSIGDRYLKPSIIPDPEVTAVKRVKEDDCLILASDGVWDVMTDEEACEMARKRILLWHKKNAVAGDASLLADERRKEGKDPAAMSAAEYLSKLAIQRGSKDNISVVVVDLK
| Variant | relative binding score |
| --- | --- |
| E89Y | -4.45% |
| T86D | 99% |
| A158C | 101% |
| G148Q | 87.9% |
| I57W | 8.54% |
| S9G | 108% |
| T6V | 108% |
| F56E | 13.4% |
| R32N | 94.6% |
| T101L | 109% |
| L82A | 80% |
| V78L | 102% |
| L112W | 4.3% |
| T173H | 77.3% |
| A175Y | 93.7% |
| H34P | 98% |
| S140F | 17.7% |
| A84K | 5.1% |

Repeated from above (set 5):
| Variant | relative binding score |
| --- | --- |
| R32N | 94.6% |
| T101L | 109% |
| L82A | 80% |
| V78L | 102% |
| L112W | 4.3% |
| T173H | 77.3% |
| A175Y | 93.7% |
| H34P | 98% |
| S140F | 17.7% |
| A84K | 5.1% |
